# Measured values of several laboratories.
# A part holds a random share of what one study measured. “And” joins repeats or separate records; there may be more than shown.

# Study 1
# Target: Replicase polyprotein 1ab, nsp12 with nsp7/nsp8 (rep, Severe acute respiratory syndrome coronavirus 2, UniProt P0DTD1)
# Effect on: polymerase activity
# Organism: SARS-CoV-2
# Tested at: 20 µM
SMILES,inhibition
O=C1C=CC(=O)C2=C1C1c3ccccc3C2c2ccccc21,-5.44%
O=C(/C=C/c1ccc2ccccc2n1)c1ccncc1,1.59%
CN=c1nc(-c2ccccc2)n(-c2ccccc2)s1,0.48%
O=C(O)c1ccc(SSc2ccc(C(=O)O)cn2)nc1,-0.12%
CCC(=O)OCN1C(=O)C=CC1=O,-2.04%
O=C(O)c1ccc(N2C(=O)/C(=C\c3ccc(-c4ccc([N+](=O)[O-])cc4)o3)C=C2c2ccccc2)cc1,14%
C[CH2][Hg][S]c1ccccc1C(=O)[O-].[Na+],20.1%
O=C1C=Cc2cc(Br)ccc2C1=O,4.46%
CCOC(=O)C1=C(N)Oc2ccc(Br)cc2[C@H]1[C@H](C#N)C(=O)OCC,-4.93% and 1.2%
CCn1c(N)c(C(=O)NC)c(=O)c2ccc(C#C[C@@](C)(O)COC)nc21,3.57%
CC(=O)[O][Pt]([NH2])([Cl])([Cl])([NH]C1CCCCC1)[O]C(C)=O,-0.69%
O=c1[nH]nc(Sc2ncc([N+](=O)[O-])s2)n1-c1ccc2c(c1)OCCO2,-14.3%
O=Nc1ccc(O)c2ncccc12,1.18%
CC(C)n1nc(C#Cc2ccccc2)c2c(N)ncnc21,1.95%
N#CSc1cc(SC#N)c(N)nc1N,29.3%
CCN(CC)C(=S)S,-5.73%
CC(=O)OC[C@H]1O[C@@H]([S-])[C@H](OC(C)=O)[C@@H](OC(C)=O)[C@@H]1OC(C)=O.CCP(CC)CC.[Au+],-4.54%
CO/N=C(\C(=O)N[C@@H]1C(=O)N2C(C(=O)O)=C(CSC(=O)c3ccco3)CS[C@H]12)c1csc(N)n1,1.88%

# Study 2
# Target: Replicase polyprotein 1ab, main protease (rep, Severe acute respiratory syndrome coronavirus 2, UniProt P0DTD1)
# Effect on: enzyme activity
# Action: inhibitor
# Tested at: 20 µM
# Setting: primary screen
SMILES,inhibition
c1ccc2sc(SN3CCOCC3)nc2c1,99%
CCN(CC)c1ccc(C(=C2C=CC(=[N+](CC)CC)C=C2)c2ccccc2)cc1,98.2%
CN1C2=CC(=O)/C(=N\NC(N)=O)C=C2CC1S(=O)(=O)O (stereo not shown),25.4%

# Study 3
# Target: RNA binding protein fox-1 homolog 2, RRM domain, GST-SBP tag (RBFOX2, Homo sapiens, UniProt O43251-10, residues 100-194)
# Technique: RNA Bind-n-Seq
# Form: RNA
# Matrix: in vitro
# Tested at: 365 nM
# Setting: natural RNA segment, single round, ends assumed
# Reference: no-protein control
# Direction: higher = stronger binding
# All sequences stand within: GGGAGUUCUACAGUCCGACGAUC … UGGAAUUCUCGGGUGCCAA
# Target sequence (chain): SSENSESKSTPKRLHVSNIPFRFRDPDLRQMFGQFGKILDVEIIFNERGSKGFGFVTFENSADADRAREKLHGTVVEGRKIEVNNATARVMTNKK
Strand,RBNS enrichment (R)
UCUUAAUAUUGUCCAAUGUUUGGUGUUAUCUGCAUUGUUUUUUGUUUUUUUAAUUGUGGUUGUUCUGACGUGUGAAAUUUAAGGAAAGAGCCAUUUUUUAAAAAUGCCGA,0.747
UGAGAUACCGGUUACUUCCCUGGUCCUGAGAGUCACCUGUGGUCACCCCUCUUCCCAGGCCUGACUUCUGAGUAGGACCCUGGGUCAGGGCUAAGUGUUGAAUUUACCCU,0.294
CAUGAGAGUUUUUCUAAAUCUACAUGAAAAACAAAUUUUCCUGGGUUUCAGUACAUUGGCUUUUACAUCAAAAACUAACAGGGCACAGUUUGACCUGUUUAGUGUAUUCU,0.286
GGUGGCAACAUGGUUCUUGAACAAUUAAAGAAACAAAUGACUUUUUGGAAUAGCCCUGUCUAGGGCAAACUGUGGCCCCCAGGAGACACUACCCUUCCAUGCCCCAGACC,0.452
UAGAGAGAUCCCAGCCCUGGGAGGAGAAGGAAGUUGGGUCAGGCCUCGGUACAAAGGGAAAACACUGAAUUGGCCCCAAAACACAGGAGCAAGCGUGUGGAUUUCCAUUG,2.09
ACUGUACAGAUGUGCAUUUUCCUUUUGGUAUAAAUGGUCCACAGCACUAACUGGUAAGGCUUAUUGUACAGUAUAUUGUCAGUAUUCUUCUGGUUCAGCAUACCUUAUAG,0.527
GACAGAAUGUCAUUCUCCUUCAGUUGCUGCCAUUUUAUCUCCUCCUGAAAGCUAAAGGCUCACCACUUGAUGGUGCCUAAAGUGGGUCGGUUACCCGAGUGAGCGGCUGC,0.324
UACUGAUCCAAACACAAGACGGUCAGAGGAGCCCUGGCAUCCUUCACUCUUAUAGGCCUACAUGCAGAUGGGCUUGAAGAGAAUUGGCCUUUCAUUUUUCACGCUCGUAU,1.18

# Study 4
# Target: PABPC1L2, full length, GST fusion (mouse, UniProt A0ABA7IW68)
# Technique: RNAcompete
# Form: RNA
# Matrix: in vitro
# Tested at: 20 nM
# Setting: 7-mer, probes averaged, single round
# Reference: mean of 7-mers
# Direction: higher = stronger binding
# Residues (chain): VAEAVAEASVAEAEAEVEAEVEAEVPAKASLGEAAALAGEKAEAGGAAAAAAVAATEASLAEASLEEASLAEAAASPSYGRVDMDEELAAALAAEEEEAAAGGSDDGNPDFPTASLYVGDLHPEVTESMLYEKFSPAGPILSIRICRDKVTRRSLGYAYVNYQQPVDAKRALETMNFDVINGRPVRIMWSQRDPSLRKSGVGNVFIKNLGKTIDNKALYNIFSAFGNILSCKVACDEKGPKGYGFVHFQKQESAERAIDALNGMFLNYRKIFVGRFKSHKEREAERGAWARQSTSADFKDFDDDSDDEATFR
Strand,7-mer Z-score
GAGGCUG,0.0225
CGUUACG,-0.306
CAAAGGC,0.142
UUGGAGC,-0.135
ACCACCA,-0.0446
CUUGAGC,-0.197
CUAUGAG,-0.155
CAAAUCA,0.249

# Study 5
# Cell line: HEK-293T/ACE2
# Tested at: 10 µM
# Time: 16 h
# Reference: vehicle
SMILES,viability [%]
COc1ccccc1OCC(O)COC(N)=O (stereo not shown),98.4
NC(=O)c1ncn([C@@H]2O[C@H](CO)[C@@H](O)[C@H]2O)n1,98.3
N[C@@H](Cc1ccc(N(CCCl)CCCl)cc1)C(=O)O,89.2

# Excerpt of the above (study 1):
SMILES,inhibition
CC(C)n1nc(C#Cc2ccccc2)c2c(N)ncnc21,1.95%
N#CSc1cc(SC#N)c(N)nc1N,29.3%
